{"data": "Results collected from several papers", "note": "Numbered parts are unrelated; each lists some results of a single study.", "chain of UniProt Q9UM73 (whole entry, looked up)": "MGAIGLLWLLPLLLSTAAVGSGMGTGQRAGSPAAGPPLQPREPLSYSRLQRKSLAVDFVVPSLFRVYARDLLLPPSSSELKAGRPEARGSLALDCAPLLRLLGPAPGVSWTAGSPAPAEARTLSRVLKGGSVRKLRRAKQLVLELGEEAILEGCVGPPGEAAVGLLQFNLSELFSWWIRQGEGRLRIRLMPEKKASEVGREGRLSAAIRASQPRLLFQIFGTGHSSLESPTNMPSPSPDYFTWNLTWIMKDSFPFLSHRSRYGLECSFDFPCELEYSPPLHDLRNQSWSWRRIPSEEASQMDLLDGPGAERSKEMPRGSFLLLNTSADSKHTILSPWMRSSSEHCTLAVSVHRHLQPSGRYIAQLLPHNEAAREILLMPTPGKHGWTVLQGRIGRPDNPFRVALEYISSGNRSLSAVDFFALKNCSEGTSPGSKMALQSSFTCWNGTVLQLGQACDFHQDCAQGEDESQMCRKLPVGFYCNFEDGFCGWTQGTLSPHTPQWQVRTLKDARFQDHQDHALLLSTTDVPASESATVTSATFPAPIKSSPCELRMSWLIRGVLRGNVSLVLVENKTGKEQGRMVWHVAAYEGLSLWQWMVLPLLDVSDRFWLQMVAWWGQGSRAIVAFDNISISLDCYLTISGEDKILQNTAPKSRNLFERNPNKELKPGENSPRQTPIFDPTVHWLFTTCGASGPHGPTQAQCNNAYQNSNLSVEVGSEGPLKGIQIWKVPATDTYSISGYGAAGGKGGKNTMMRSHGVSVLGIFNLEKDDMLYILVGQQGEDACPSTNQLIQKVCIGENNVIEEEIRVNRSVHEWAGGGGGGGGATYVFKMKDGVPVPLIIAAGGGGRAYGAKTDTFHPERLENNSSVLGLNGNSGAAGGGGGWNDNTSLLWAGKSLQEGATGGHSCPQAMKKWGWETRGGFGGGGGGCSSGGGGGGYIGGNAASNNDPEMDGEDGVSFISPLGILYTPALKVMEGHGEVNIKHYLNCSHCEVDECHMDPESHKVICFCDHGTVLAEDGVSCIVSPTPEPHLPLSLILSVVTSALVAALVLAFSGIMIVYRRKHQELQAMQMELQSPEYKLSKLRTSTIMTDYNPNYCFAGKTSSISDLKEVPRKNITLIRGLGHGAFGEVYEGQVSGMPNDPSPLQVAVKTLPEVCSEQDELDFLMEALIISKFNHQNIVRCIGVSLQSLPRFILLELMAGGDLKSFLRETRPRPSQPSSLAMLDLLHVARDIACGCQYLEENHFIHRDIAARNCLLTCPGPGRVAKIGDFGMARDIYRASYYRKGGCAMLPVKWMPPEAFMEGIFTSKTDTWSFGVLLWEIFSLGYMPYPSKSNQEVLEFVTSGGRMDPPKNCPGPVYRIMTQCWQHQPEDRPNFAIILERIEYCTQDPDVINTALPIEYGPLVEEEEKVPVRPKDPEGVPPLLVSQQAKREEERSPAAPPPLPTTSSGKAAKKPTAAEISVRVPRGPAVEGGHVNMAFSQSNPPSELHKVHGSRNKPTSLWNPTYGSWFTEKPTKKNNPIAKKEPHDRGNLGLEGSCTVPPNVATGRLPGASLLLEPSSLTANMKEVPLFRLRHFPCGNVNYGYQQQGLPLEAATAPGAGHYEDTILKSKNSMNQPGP", "chain of UniProt Q9HCP0 (whole entry, looked up)": "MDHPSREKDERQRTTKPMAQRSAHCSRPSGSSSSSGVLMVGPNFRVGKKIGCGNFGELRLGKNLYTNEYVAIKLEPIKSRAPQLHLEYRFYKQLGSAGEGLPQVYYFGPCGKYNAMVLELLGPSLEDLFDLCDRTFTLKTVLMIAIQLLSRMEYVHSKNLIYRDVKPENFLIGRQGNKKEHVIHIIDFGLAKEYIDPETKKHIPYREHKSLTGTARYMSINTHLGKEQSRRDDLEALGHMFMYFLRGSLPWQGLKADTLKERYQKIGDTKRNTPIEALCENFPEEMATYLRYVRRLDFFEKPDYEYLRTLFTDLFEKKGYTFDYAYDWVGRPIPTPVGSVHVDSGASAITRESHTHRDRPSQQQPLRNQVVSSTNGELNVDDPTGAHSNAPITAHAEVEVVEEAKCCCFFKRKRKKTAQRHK", "chain of UniProt P15056 (whole entry, unmodified, looked up)": "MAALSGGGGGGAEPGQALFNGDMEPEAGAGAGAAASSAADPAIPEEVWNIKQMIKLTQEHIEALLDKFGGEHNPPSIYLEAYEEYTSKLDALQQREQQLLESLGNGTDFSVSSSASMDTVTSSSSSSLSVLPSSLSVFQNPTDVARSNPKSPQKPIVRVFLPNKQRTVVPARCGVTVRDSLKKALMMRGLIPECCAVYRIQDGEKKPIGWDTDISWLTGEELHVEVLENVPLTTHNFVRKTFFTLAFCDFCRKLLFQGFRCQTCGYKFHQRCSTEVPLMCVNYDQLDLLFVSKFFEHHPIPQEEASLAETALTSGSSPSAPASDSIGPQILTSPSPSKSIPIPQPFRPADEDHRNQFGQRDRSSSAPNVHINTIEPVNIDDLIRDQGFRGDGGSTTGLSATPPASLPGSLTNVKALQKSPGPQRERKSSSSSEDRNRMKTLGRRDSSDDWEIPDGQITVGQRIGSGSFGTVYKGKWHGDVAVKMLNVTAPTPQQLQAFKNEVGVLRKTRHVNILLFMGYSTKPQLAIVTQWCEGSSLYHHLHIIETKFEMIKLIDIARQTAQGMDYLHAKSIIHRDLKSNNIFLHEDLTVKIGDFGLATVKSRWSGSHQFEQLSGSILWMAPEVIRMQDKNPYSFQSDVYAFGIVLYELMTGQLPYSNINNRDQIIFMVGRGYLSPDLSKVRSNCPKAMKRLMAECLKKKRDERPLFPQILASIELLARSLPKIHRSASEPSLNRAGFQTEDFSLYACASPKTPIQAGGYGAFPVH", "chain of UniProt P29317 (whole entry, looked up)": "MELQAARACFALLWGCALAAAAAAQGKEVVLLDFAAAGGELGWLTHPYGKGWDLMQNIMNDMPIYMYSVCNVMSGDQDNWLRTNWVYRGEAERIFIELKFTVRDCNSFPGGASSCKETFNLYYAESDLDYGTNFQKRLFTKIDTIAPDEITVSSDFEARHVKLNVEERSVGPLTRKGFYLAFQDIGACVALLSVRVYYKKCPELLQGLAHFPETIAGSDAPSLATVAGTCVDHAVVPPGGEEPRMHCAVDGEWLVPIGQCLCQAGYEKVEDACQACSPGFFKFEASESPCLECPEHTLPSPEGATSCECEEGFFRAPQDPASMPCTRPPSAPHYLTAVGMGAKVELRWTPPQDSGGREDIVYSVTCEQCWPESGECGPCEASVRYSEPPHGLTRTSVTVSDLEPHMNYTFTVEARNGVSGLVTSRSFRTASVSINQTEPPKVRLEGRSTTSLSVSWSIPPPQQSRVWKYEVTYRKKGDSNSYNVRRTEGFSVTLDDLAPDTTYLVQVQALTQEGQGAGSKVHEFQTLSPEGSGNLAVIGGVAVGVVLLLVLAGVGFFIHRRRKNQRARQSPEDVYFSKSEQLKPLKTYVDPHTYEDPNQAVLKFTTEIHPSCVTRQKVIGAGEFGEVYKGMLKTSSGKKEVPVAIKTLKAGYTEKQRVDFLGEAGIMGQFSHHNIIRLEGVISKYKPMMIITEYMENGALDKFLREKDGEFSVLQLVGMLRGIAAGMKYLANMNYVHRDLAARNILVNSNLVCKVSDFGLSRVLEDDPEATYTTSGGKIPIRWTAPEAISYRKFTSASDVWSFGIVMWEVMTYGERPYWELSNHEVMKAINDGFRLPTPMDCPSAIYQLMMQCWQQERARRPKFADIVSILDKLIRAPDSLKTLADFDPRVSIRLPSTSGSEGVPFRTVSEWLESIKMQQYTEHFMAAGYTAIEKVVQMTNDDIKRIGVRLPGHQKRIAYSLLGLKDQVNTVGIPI"}
{"data": "Series 1", "SMILES": "COc1cc(-c2cn(C3CCc4ccccc4N(CC(F)(F)F)C3=O)nn2)ccc1-n1ccc(C)n1 (centres unmarked)", "observed": "cell-free assay", "method": "competition with immobilised ligand", "concentration": "1 µM"}
{"target": "Tyrosine-protein kinase Fes/Fps (FES, Homo sapiens, UniProt P07332)", "remaining binding": "100%"}
{"target": "Ephrin type-A receptor 2 (EPHA2, Homo sapiens, UniProt P29317)", "remaining binding": "100%"}
{"target": "Phosphatidylinositol 4-kinase beta (PI4KB, Homo sapiens, UniProt Q9UBF8)", "remaining binding": "87%"}
{"target": "cAMP-dependent protein kinase catalytic subunit alpha (PRKACA, Homo sapiens, UniProt P17612)", "remaining binding": "100%"}
{"target": "Receptor-type tyrosine-protein kinase FLT3 (FLT3, Homo sapiens, UniProt P36888, R834Q)", "remaining binding": "100%"}
{"target": "Casein kinase I isoform gamma-1 (CSNK1G1, Homo sapiens, UniProt Q9HCP0)", "remaining binding": "77%"}
{"target": "Ankyrin repeat and protein kinase domain-containing protein 1 (ANKK1, Homo sapiens, UniProt Q8NFD2)", "remaining binding": "78%"}
{"target": "Serine/threonine-protein kinase B-raf (BRAF, Homo sapiens, UniProt P15056, V600E)", "remaining binding": "97%"}
{"target": "ALK tyrosine kinase receptor (ALK, Homo sapiens, UniProt Q9UM73)", "remaining binding": "92%"}
{"target": "Phosphatidylinositol 4,5-bisphosphate 3-kinase catalytic subunit alpha isoform (PIK3CA, Homo sapiens, UniProt P42336, H1047L)", "remaining binding": "97%"}
{"data": "Series 2", "organism": "Sarcocystis neurona", "observed": "parasite growth", "concentration": "10 µM"}
{"Compound": "CCC[C@@H]1C[C@@H](C(=O)N[C@@H]([C@H]2O[C@H](SC)[C@H](O)[C@@H](O)[C@H]2O)[C@@H](C)O)N(C)C1", "inhibition [%]": 16}
{"Compound": "COc1cc2nc(N3CCN(C(=O)C4COc5ccccc5O4)CC3)nc(N)c2cc1OC (centres unmarked)", "inhibition [%]": 73.1}
{"Compound": "CCCc1nc(C)c2c(=O)[nH]c(-c3cc(S(=O)(=O)N4CCN(CC)CC4)ccc3OCC)nn12.O=C(O)CC(O)(CC(=O)O)C(=O)O", "inhibition [%]": -31}
{"Compound": "CC(C)[N+](C)(CCOC(=O)C1c2ccccc2Oc2ccccc21)C(C)C.[Br-]", "inhibition [%]": -30.1}
{"Compound": "COc1cc(-c2ccc(=O)[nH]n2)ccc1OC(F)F", "inhibition [%]": -46.5}
{"Compound": "COc1cccc2c1C(=O)c1c(O)c3c(c(O)c1C2=O)C[C@@](O)(C(=O)CO)C[C@@H]3O[C@H]1C[C@H](N)[C@@H](O)[C@H](C)O1", "inhibition [%]": 79.2}
{"data": "Series 3", "cell line": "A-375", "concentration": "100 µM", "time": "18 h"}
{"SMILES": "C=CC[N+]1([C@H]2C[C@H]3[C@@H]4CC[C@H]5C[C@H](O)[C@@H](N6CCOCC6)C[C@]5(C)[C@H]4CC[C@]3(C)[C@H]2OC(C)=O)CCCC1", "viability [%]": 74.5}
{"SMILES": "Cc1ccc(/C(=C\\CN2CCCC2)c2ccccn2)cc1", "viability [%]": 60.6}
{"SMILES": "CCN(CCO)CCCC(C)Nc1ccnc2cc(Cl)ccc12 (centres unmarked)", "viability [%]": 29.2}
{"SMILES": "COc1cc2c(cc1Cc1cccc(Cl)c1F)c(=O)c(C(=O)O)cn2[C@H](CO)C(C)C", "viability [%]": 62}
{"SMILES": "C[C@@H](c1ncncc1F)[C@](O)(Cn1cncn1)c1ccc(F)cc1F", "viability [%]": 90.4}
{"SMILES": "O=c1ccc2ccccc2o1", "viability [%]": 91.7}
{"SMILES": "COc1ccc2cc1Oc1ccc(cc1)C[C@H]1c3c(cc4c(c3Oc3cc5c(cc3OC)CCN(C)[C@@H]5C2)OCO4)CCN1C", "viability [%]": 11}
{"data": "Series 4", "target": "NUAK family SNF1-like kinase 2 (NUAK2, Homo sapiens, UniProt Q9H093)", "observed": "enzyme activity", "action": "inhibitor", "concentration": "0.5 µM", "relative to": "control", "chain of UniProt Q9H093 (whole entry, looked up)": "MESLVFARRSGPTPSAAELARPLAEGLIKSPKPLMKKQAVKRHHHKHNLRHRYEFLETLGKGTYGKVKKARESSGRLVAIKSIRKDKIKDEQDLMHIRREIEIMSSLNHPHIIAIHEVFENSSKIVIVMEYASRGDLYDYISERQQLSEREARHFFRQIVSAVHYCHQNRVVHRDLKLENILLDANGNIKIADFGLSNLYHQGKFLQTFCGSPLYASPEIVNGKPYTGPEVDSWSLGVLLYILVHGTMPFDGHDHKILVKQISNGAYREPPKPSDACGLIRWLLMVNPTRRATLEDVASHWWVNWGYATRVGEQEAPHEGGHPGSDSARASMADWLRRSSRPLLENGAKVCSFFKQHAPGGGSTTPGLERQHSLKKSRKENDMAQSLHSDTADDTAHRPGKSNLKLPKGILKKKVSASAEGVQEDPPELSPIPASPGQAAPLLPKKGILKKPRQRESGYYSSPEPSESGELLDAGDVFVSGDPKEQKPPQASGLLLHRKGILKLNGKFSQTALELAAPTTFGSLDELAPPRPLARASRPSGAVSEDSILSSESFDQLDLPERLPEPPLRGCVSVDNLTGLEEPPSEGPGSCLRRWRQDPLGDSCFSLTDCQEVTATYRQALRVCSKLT"}
{"SMILES": "Cc1ccc(NC(=O)c2ccc(CN3CCN(C)CC3)cc2)cc1Nc1nc(-c2cccnc2)cs1", "remaining activity [%]": 98.4}
{"SMILES": "COc1cc2ncnc(Nc3ccc(Oc4ccccc4)cc3)c2cc1OC", "remaining activity [%]": 137}
{"SMILES": "Nc1ccc2ncnc(NCCc3ccc(Oc4ccccc4)cc3)c2c1", "remaining activity [%]": 112}
{"SMILES": "O=c1c2ccccc2[nH]c(=S)n1CCN1CCC(=C(c2ccc(F)cc2)c2ccc(F)cc2)CC1", "remaining activity [%]": 106}
{"SMILES": "Cc1nc(-c2ccccc2)c(-c2ccncc2)o1", "remaining activity [%]": 128}
{"SMILES": "O=S(=O)(c1cccc2cnccc12)N1CCCNCC1", "remaining activity [%]": 83.5}
{"SMILES": "O=C(Nc1cccc(Nc2cc(Nc3cccc(C(F)(F)F)c3)ncn2)c1)C1CC1", "remaining activity [%]": 103}
{"SMILES": "CCOC(=O)c1c(C)[nH]c(/C=C2\\C(=O)Nc3ccccc32)c1C", "remaining activity [%]": 128}
{"SMILES": "O=C1NC(=O)C(c2cn(CCCO)c3ncccc23)=C1c1cnccn1", "remaining activity [%]": 92.3}
{"SMILES": "Cc1cccc(-c2[nH]c(C(C)(C)C)nc2-c2ccc3c(c2)OCO3)n1", "remaining activity [%]": 138}
{"SMILES": "COc1ccc(OC)c2c(=S)c3ccccc3[nH]c12", "remaining activity [%]": 98.9}
{"SMILES": "Cn1c2ccccc2c2c3c(c4c5ccccc5n(CCC#N)c4c21)CNC3=O", "remaining activity [%]": 40.5}
{"SMILES": "CN(C)c1ccc(C=C2C(=O)Nc3ccccc32)cc1", "remaining activity [%]": 94.3}
{"SMILES": "O=C(O)c1ccc2c3c1cccc3c(=O)n1c3ccccc3nc21", "remaining activity [%]": 122}
{"SMILES": "N#CC(C#N)=C(N)/C(C#N)=C/c1ccc(O)cc1", "remaining activity [%]": 122}
{"note": "Some of these lines once more (series 2):"}
{"Compound": "CCCc1nc(C)c2c(=O)[nH]c(-c3cc(S(=O)(=O)N4CCN(CC)CC4)ccc3OCC)nn12.O=C(O)CC(O)(CC(=O)O)C(=O)O", "inhibition [%]": -31}
{"Compound": "CCC[C@@H]1C[C@@H](C(=O)N[C@@H]([C@H]2O[C@H](SC)[C@H](O)[C@@H](O)[C@H]2O)[C@@H](C)O)N(C)C1", "inhibition [%]": 16}
{"Compound": "COc1cc(-c2ccc(=O)[nH]n2)ccc1OC(F)F", "inhibition [%]": -46.5}
{"Compound": "COc1cc2nc(N3CCN(C(=O)C4COc5ccccc5O4)CC3)nc(N)c2cc1OC (centres unmarked)", "inhibition [%]": 73.1}
{"Compound": "CC(C)[N+](C)(CCOC(=O)C1c2ccccc2Oc2ccccc21)C(C)C.[Br-]", "inhibition [%]": -30.1}
